# Published values gathered from unrelated publications.
# Numbered parts are unrelated; each lists some results of a single study.

# Set 1
# Target: Sal-like protein 4, full length isoform B (SALL4, Homo sapiens, UniProt Q9UJQ4-2, residues 1-616)
# Method: universal PBM
# Molecule type: double-stranded DNA, one strand shown
# Matrix: in vitro
# Tested at: not given
# Notes: 8-mer, flanks averaged, mean of replicates
# Reading: higher = stronger binding
# Residues (chain): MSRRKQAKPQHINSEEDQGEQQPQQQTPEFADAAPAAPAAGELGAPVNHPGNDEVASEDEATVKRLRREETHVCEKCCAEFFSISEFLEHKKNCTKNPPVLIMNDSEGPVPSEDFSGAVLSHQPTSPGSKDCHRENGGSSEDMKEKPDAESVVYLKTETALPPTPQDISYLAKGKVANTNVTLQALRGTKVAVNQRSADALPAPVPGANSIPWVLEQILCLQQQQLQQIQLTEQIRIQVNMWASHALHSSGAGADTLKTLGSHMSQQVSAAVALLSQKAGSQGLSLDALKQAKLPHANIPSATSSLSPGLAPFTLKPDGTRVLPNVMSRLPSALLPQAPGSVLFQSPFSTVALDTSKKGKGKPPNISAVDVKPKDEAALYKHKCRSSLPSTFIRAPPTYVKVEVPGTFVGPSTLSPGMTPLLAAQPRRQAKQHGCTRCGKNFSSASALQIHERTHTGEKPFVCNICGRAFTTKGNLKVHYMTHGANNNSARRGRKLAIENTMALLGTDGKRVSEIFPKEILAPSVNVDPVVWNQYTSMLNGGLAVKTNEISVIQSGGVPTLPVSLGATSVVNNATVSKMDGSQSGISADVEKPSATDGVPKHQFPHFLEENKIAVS
Oligonucleotide,E-score
CAGGAGAA,-0.0312
AGTAAACA,0.166
CCATTTGC,0.00214
AGGTTCTG,-0.027
AAAAGTCA,0.0518
AACTCAAC,0.0851
GCACCTCC,-0.341
GGACGAAC,0.035
ATAAAACG,0.241
CCTGTGAA,0.0189

# Set 2
# Target: PABPC1L2, full length, GST fusion (mouse, UniProt A0ABA7IW68)
# Method: RNAcompete
# Molecule type: RNA
# Matrix: in vitro
# Tested at: 20 nM
# Notes: 7-mer, probes averaged, single round
# Relative to: mean of 7-mers
# Reading: higher = stronger binding
# Target sequence (chain): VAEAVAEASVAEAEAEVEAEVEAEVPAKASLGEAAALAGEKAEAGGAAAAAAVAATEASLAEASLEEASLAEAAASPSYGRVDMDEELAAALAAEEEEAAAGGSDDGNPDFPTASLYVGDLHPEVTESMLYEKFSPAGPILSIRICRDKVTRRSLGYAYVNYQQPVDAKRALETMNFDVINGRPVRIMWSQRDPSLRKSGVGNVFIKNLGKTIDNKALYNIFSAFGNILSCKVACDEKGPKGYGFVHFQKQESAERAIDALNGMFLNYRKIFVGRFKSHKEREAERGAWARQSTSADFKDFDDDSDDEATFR
Oligonucleotide,7-mer Z-score
AGUGCAU,-0.0699
CAGCUUG,-0.115
CCCUCGC,-0.394
UGAGGUC,-0.153
AUGGUGG,0.128
CGGGCCC,-0.376
GUUGAAC,-0.208
CACAUCA,-0.289
CAAUAUG,0.0642

# Set 3
# Target: RING finger protein unkempt homolog, zinc fingers 1-6, GST-SBP tag (UNK, Homo sapiens, UniProt Q9C0B0, residues 30-357)
# UniProt Q9C0B0, sequence (30-357, looked up): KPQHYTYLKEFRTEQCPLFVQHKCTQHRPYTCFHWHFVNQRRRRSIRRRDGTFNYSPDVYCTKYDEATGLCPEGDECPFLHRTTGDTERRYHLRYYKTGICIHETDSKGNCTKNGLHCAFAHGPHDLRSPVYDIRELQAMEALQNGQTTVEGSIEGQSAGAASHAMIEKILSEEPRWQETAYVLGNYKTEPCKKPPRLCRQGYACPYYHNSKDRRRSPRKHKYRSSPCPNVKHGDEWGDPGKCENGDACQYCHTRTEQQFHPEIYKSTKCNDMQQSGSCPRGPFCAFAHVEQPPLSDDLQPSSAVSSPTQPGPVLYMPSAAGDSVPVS
# Method: RNA Bind-n-Seq
# Molecule type: RNA
# Matrix: in vitro
# Tested at: not given
# Notes: RNA with constant flanks, ends assumed
# Relative to: input RNA pool
# Reading: higher = stronger binding
# Shared flanks, not repeated: GGGAGUUCUACAGUCCGACGAUC … CAACAGAGGAUUGAGCAUCA
Oligonucleotide,bound/input enrichment [ratio]
UUCAAAAUUGGAGCAUGUCGUCAUGGAGACAGGUGCUCUCGGUUGCACAAUAAACCGACGUUCCGCCAGACCAUUGCCCUCUUGAACAUUUACCGUAACCCUCAAAACUCUUCCCAGUCU,0.117
AGACGUGCGCCACCACCGCCCACCUUAAAUUCUUACAGAUAAAAACUGUAUAUGUUUAUAAACCGUUAUAAAGAACUAUUUUAUAUAAUAGCUAUUAUCAUUGUAGAAAUGACUUACAAA,0.966
GGGGGCAAGGCCAAAAAGAAGAAGUGGUCCAAAGGCAAAGUUCGGGACAAGCUCAAUAACUCCGUCUUGUUUGACAAAGCUACCUAUGAUAAACUCUGUAAGGAAGUUCCCAACUAUAAA,1.38
UCCGCGGAAGUCCCCGAGGCAGCGUCUGCGGAGGAGCAAAAGGAAAUGGAAGAUAAAGUAACCCGUCCAGAGAAAGCUGAAGAAGCAAAGUUAAAGGCAAGGUAUCCUCACUUGGGACAA,0.253
GGAAAAUAUGUGUAUGUAGUAACAGAACUUAUGAAAGGAGGUGAAUUGCUGGAUAAGAUUCUCCGACAGAAGUUUUUCUCAGAGCGAGAGGCCAGCGCUGUCCUGUUUACUAUAACCAAA,0.422
GAACAAGUAUGCCACAUCGAAGCAUGCUAAGAUCAGCACUCUACCACAGCUGAAUUCUGCACCCGUUCAAGAUUUAGCCAAGGCUGUGGCAAAGGUGUAACUUGUAAACUUGAGUUGGAG,0.172

# Single results of other studies
Molecule,target,test,test system,setting,scale,measurement,value
"PhoQ, residues 284 288 289 292 302 303 SIHLQL","PhoP, residues 12 14 15 18 19 TQAIL (Escherichia coli, UniProt P23836)","Sort-seq, refers to: YFP reporter",E. coli,"PhoQ-PhoP variant library, added: 10 µM Mg2+","relative to: high Mg2+ state, higher = stronger signaling",fold induction,23.6
